Results of several laboratories.
Each line is one published result; not all experiments were run side by side. Numbers after ± are the reported error.
Chain of UniProt Q13011 (whole entry, looked up): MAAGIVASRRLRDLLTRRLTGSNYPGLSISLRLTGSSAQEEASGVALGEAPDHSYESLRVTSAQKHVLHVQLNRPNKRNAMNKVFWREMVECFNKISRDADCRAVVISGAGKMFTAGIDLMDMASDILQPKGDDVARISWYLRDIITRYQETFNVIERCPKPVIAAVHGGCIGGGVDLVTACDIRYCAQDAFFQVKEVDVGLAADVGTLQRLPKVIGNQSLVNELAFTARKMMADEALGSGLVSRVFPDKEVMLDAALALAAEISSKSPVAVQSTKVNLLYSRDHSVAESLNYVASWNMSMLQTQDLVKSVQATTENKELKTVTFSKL

SMILES | tested on | test | system | conditions | scale | quantity | result
O=c1ccc2ccccc2o1 | HepaRG 3D spheroids | glutathione content |  | 168 h, high-content imaging |  | point of departure | 576 µM
COc1cccc2c1CCCC2CCCN1CCN(C2CCCCC2)CC1 (centres unmarked) |  |  | CD-1 mouse, male, lung | intraperitoneal, 30 mg/kg |  | Tmax | 5 min
CCc1ccc(CC/C=C/c2ccc3c(c2)C(=O)CC3)cc1 |  |  | Sprague-Dawley rat, female | oral, 120 mg/kg/day, 14 days |  | CHCM | 335 g/L
c1ccc2c(c1)-c1ccc3ccc4cccc5cc-2c1c3c45 |  |  | fresh water | 20 °C, S30-2 sampler, 30 µm |  | log K(PDMS-water) | 5.54 ± 0.08
O=C1Nc2cc3[nH]nc(-c4ccncc4)c3cc2CN1Cc1ccccc1 |  | CTCAE v4.03 | advanced solid tumour patients | intravenous, 7.2 mg/kg |  | patients with acneiform dermatitis | 33%
COc1ncccc1-c1cnn2ccc(N3CCN(C(=O)OC(C)C)CC3)nc12 |  |  | mouse nerve ligation model, brain | oral, 30 mg/kg, 120 min after last dose, repeat dosing day 3 |  | drug concentration | 24 µM
CC(C)C[C@H](NC(=O)[C@H](CCCCN)NC(=O)OCC1c2ccccc2-c2ccccc21)C(=O)N[C@H](C(=O)N[C@@H](Cc1ccccc1)C(=O)N[C@@H](Cc1ccccc1)C(=O)N[C@@H](CCCCN)C(=O)NCC(=O)N[C@@H](Cc1ccccc1)C(=O)N[C@@H](C)C(=O)N[C@@H](Cc1c[nH]c2ccccc12)C(=O)N[C@@H](CC(N)=O)C(=O)N[C@H](C(=O)N[C@H]1CSSC[C@@H](C(=O)N[C@@H](Cc2c[nH]cn2)C(=O)N[C@@H](CCCNC(=N)N)C(=O)N[C@@H](CCCNC(=N)N)C(=O)N[C@@H](C)C(=O)N[C@@H](CC(N)=O)C(N)=O)NC(=O)[C@H](C(C)C)NC(=O)[C@H](CCCNC(=N)N)NC(=O)[C@H](C(C)C)NC(=O)CNC(=O)[C@H](CC(N)=O)NC(=O)[C@H](CCCNC(=N)N)NC(=O)[C@H](Cc2ccc(O)cc2)NC(=O)[C@H](C(C)C)NC1=O)C(C)C)C(C)C |  |  | ICR mouse, blood | intramammary, 10 mg/kg, day 5, 3 d dosing |  | lymphocytes | 72.7 ± 1.66%
COc1cc(C2C3=C(COC3=O)N(CCO)c3cc4c(cc32)CCC4)cc(OC)c1OC (centres unmarked) |  |  | female Sprague-Dawley rats | intraperitoneal, 200 mg/kg, 72 h, single dose, mean |  | body weight | 215 g
Clc1cc(Cl)cc(-c2cc(Cl)ccc2Cl)c1 |  |  | fresh water | 20 °C, S30-1 sampler, 30 µm |  | log K(PDMS-water) | 5.71 ± 0.04
CCN(CCO)CCCC(C)Nc1ccnc2cc(Cl)ccc12 (centres unmarked) |  |  | newly diagnosed glioblastoma patients | oral, 400 mg/dose, grade 1, together with: radiotherapy and temozolomide |  | nausea patients | 57%
O=S(=O)(Nc1ccccc1)c1ccc(NC(=S)Nc2ccccc2)cc1 |  |  | female mouse, blood | oral, 5 mg/kg daily, 14 days |  | potassium level | 8 mmol/L
CN1CCN(c2ccc(Nc3nccc(-c4cccc(Cl)c4)n3)cc2C(F)(F)F)CC1 |  |  | Danio rerio embryos | 5 µM, 5 d |  | toxicity | 37 ± 32%
N=C(N)NCCNC(=O)C1(Nc2ccccc2)CCN(Cc2ccccc2)CC1 |  |  | Sprague-Dawley rat, male, urine | oral, 50 mg/kg, time not given |  | unchanged urinary recovery | 0.2%
CC(C)CC(=O)OC[C@H]1O[C@@](C#N)(c2ccc3c(N)ncnn23)[C@H](O)[C@@H]1O |  |  | Sprague-Dawley rat, male, urine and faeces | 80 mg/kg, time not given | reference: dose | recovery in urine and faeces | 0.0796%
CCN1[C@@H](C(=O)NC23CCC(C(=O)O)(CC2)CC3)[C@H](c2cccc(Cl)c2F)[C@]2(C(=O)Nc3cc(Cl)ccc32)C12CCCCC2 |  |  | patients with advanced solid tumours | oral, 100 mg |  | grade ≥3 Leukopenia incidence | 9.1%
CC/C(=C(\c1ccccc1)c1ccc(OCCN(C)C)cc1)c1ccccc1 |  |  | CD-1 mouse, male, lung | intraperitoneal, 3 mg/kg |  | elimination rate constant | 2.9e-05 s⁻¹
N=C(N)NCCC[C@@H](NC(=O)[C@@H](N)Cc1ccccc1)C(=O)N[C@@H](Cc1ccccc1)C(=O)N[C@@H](CCCCN)C(N)=O |  | LC-MS | human | 25 mg, 23.83 h |  | median amount excreted in urine | 402000 ng
COc1ccc(C[C@@H]2NC(=O)[C@H]([C@@H](C)O)NC(=O)[C@@H]3[C@@H]4CCN3C(=O)[C@@H]3Cc5cn(c6ccc(F)cc56)CCCCCCN(Cc5ccc(cc5)CCNC(=O)[C@]5(C)CCCN5C2=O)C(=O)CCC(=O)N[C@@H](C)C(=O)N[C@H](CNC(=O)CCCCC[N+](C)(C)C)C(=O)N[C@@H](Cc2cccc(c2)CNC(=O)CO4)C(=O)N3)cc1 |  | refers to: dry mouth | human | dose not given |  | participants with adverse event | 6.5%
C=CCNc1c(O)cc2c(O)c1C[C@@H](C)C[C@H](OC)[C@H](O)[C@@H](C)/C=C(\C)[C@H](OC(N)=O)[C@@H](OC)/C=C\C=C(/C)C(=O)N2 |  |  | unresectable or metastatic STS, GIST, other | intravenous, 300 mg/m^2 |  | patients with fatigue TEAE | 67%
Cc1ccccc1C(=O)NN=Cc1ccc(O)c(Br)c1 |  |  | normal C3H/HeN mouse, plasma | intraperitoneal, 0.8 mg/kg |  | AUC(0-t) | 88.8 ng·h/mL
O=c1c2cc(Cl)ccc2[nH]c(=S)n1Cc1cccnc1 |  |  | human liver microsomes | 10 µM, 1 h, pH 7.4, together with: glutathione |  | parent remaining | ≤ 97.5%

SMILES | tested on | test | system | conditions | scale | quantity | result
CC(C)C[C@@H]1NC(=O)CNC(=O)[C@H](CC(N)=O)NC(=O)[C@H](CCCNC(=N)N)NC(=O)[C@H]([C@@H](C)O)NC(=O)[C@@H]2CSSC[C@@H]3NC(=O)[C@H]([C@@H](C)O)NC(=O)CNC(=O)CNC(=O)[C@H](C(C)C)NC(=O)[C@@H]4CSSC[C@H](NC(=O)[C@H]([C@@H](C)O)NC(=O)[C@H](CSSC[C@H](NC(=O)[C@H](C(C)C)NC(=O)[C@@H]5CCCN5C1=O)C(=O)NCC(=O)N[C@@H](CCC(=O)O)C(=O)N[C@@H]([C@@H](C)O)C(=O)N4)NC(=O)CNC(=O)[C@@H]1CCCN1C(=O)[C@H]([C@@H](C)O)NC(=O)[C@H](CC(N)=O)NC3=O)C(=O)N[C@@H](CCCCN)C(=O)N[C@@H](Cc1c[nH]c3ccccc13)C(=O)N1CCC[C@H]1C(=O)N[C@@H](C(C)C)C(=O)N2 |  | HPLC | ammonium bicarbonate | 180 µM, 7 days, pH 9.0, 25 °C, deamidation stability |  | remaining peptide | 89.5 ± 0.2%
CC[C@H](C)[C@@H]1NC(=O)[C@@H]2CCCN2C(=O)[C@H](CC(C)C)NC(=O)[C@H](CC(C)C)NC(=O)CNC(=O)[C@@H](NC(=O)[C@@H](NC(=O)[C@H](CC(=O)O)NC(=O)CNC(=O)[C@@H](NC(=O)[C@H](C)NC(=O)CNC(=O)[C@H](CCCCN)NC(=O)[C@H](CC(C)C)NC(=O)[C@H](CC(C)C)NC(=O)[C@H](CCCCN)NC(=O)CNC(=O)[C@@H](NC(=O)[C@@H](N)CC(C)C)C(C)C)C(C)C)C(C)C)CSSC[C@@H](C(=O)O)NC1=O |  | RNA-seq, refers to: Samhd1 | mouse, traumatic brain injury model, frontal cortex and hippocampus | dose not given | reference: TBI alone | log2 fold change | -1.12
C[C@H]1CN(c2n[nH]c3nc(N[C@H]4CC[C@H](NS(=O)(=O)CCC(F)(F)F)CC4)ncc23)CCO1 | Delta(3,5)-Delta(2,4)-dienoyl-CoA isomerase, mitochondrial (Homo sapiens, UniProt Q13011) | Kinobeads competition, refers to: ECH1 |  | 20 µM, unit not given | reference: vehicle | remaining binding | 1.12
O=C(Nc1ccccc1)C1CCN(C(=O)Oc2cccnc2)CC1 |  | adverse event reporting | healthy women | oral, 20 mg, 7 days |  | subjects with nervous system disorders | 21.4%
C[C@@H](NC(=O)N1C(=O)[C@H](Cc2ccnc(N)c2)[C@H]1C(=O)O)C1CCCCC1 |  |  | healthy adult Chinese volunteers | continuous intravenous infusion, 1.0 mg/kg/h, 5-day infusion, CTCAE 5.0 grading |  | incidence of decreased hemoglobin | 12.5%
CN1CC[C@@H](c2c(O)cc(O)c3c(=O)cc(-c4ccc(C(F)(F)F)cc4Cl)oc23)[C@@H]1CO |  | refers to: Pyrexia | B-cell malignancies or AML | oral, 100 mg, continuous dosing |  | patients with adverse event | 12.5%
c1ccc2c(c1)ccc1c3ccccc3ccc21 |  |  | fresh water | 12 (unit not given), 20 °C |  | log K(PDMS-water) | 4.72 ± 0.03
CCCSc1ccc2nc(NC(=O)OC)[nH]c2c1 |  |  | mouse, blood | oral, 50 mg/kg, tolerability, mean |  | monocytes | 1.38%
Clc1ccc(-c2cc(Cl)c(Cl)c(Cl)c2)cc1Cl |  |  | fresh water | 20 °C, S30-1 sampler, 30 µm |  | log K(PDMS-water) | 5.97 ± 0.06
CC(=O)c1c(C)c2cnc(Nc3ccc(C4CCN(CCS(C)(=O)=O)CC4)cn3)nc2n(C2CCCC2)c1=O |  |  | HR+/HER2- advanced breast cancer patients | oral, dose not given |  | patients with SAE | 15.8%
CC(C)C[C@@H]1NC(=O)CNC(=O)[C@H](CC(N)=O)NC(=O)[C@H](CCCCN)NC(=O)[C@H]([C@@H](C)O)NC(=O)[C@@H]2CSSC[C@@H]3NC(=O)[C@H]([C@@H](C)O)NC(=O)CNC(=O)CNC(=O)[C@H](C(C)C)NC(=O)[C@@H]4CSSC[C@H](NC(=O)[C@H]([C@@H](C)O)NC(=O)[C@H](CSSC[C@H](NC(=O)[C@H](C(C)C)NC(=O)[C@@H]5CCCN5C1=O)C(=O)NCC(=O)N[C@@H](CCC(=O)O)C(=O)N[C@@H]([C@@H](C)O)C(=O)N4)NC(=O)CNC(=O)[C@@H]1CCCN1C(=O)[C@H]([C@@H](C)O)NC(=O)[C@H](CC(N)=O)NC3=O)C(=O)N[C@@H](CO)C(=O)N[C@@H](Cc1c[nH]c3ccccc13)C(=O)N1CCC[C@H]1C(=O)N[C@@H](C(C)C)C(=O)N2 |  | HPLC | ammonium bicarbonate 0.1 M | 180 µM, 14 days, pH 9.0, 37 °C, deamidation stability |  | remaining peptide | 56.3 ± 6.6%
COc1cc2c(Oc3ccc4[nH]c(C)cc4c3F)ccnc2cc1OCC1(N)CC1 |  |  | paediatric recurrent refractory sarcoma | 8 mg |  | grade 1 or 2 Myalgia | 50%
CO[C@H]1C[C@@H]2CC[C@@H](C)[C@@](O)(O2)C(=O)C(=O)N2CCCC[C@H]2C(=O)O[C@H]([C@H](C)C[C@@H]2CC[C@@H](OC(=O)NCCOCCOCCOCCOCCOCCOCCOCCOCCC(=O)N3CCc4cc(Cn5nc(-c6ccc7oc(N)nc7c6)c6c(N)ncnc65)ccc4C3)[C@H](OC)C2)C[C@@H](O)[C@H](C)/C=C(\C)[C@@H](O)[C@@H](OC)C(=O)[C@H](C)C[C@H](C)/C=C/C=C/C=C/1C |  |  | patients with advanced solid tumours | intravenous, 12 mg weekly, any grade |  | dyspnoea incidence | 25%
COc1ccc(-c2c(-c3ccc(C#N)c(F)c3)nc(N3CCC(N)CC3)n(C)c2=O)cc1F |  | refers to: bone pain | human patients | oral, 60 mg, dose expansion |  | serious adverse event incidence | 0%
CN(C(=O)n1cnc(-c2ccc[n+]([O-])c2)c1)C1CCCCC1 |  |  | Wistar rat, hippocampus | oral, 10 mg/kg, 4 h, single dose |  | concentration | 125 ± 38.8 ng/g
CN1CCN(S(=O)(=O)c2cc([N+](=O)[O-])ccc2N(CCOS(C)(=O)=O)CCOS(C)(=O)=O)CC1 |  |  | NSG mice, plasma | intraperitoneal, 10 mg/kg, 2 h |  | concentration | not detected
C[C@]1(CO)Cc2ncn(-c3ccc(C#N)c(Cl)c3)c2C(=O)O1 |  | investigator-assessed | human | 10 mg single dose |  | subjects with drug-related TEAEs | 0%
CC(C)c1nc(N(C)S(C)(=O)=O)nc(-c2ccc(F)cc2)c1/C=C/[C@@H](O)C[C@@H](O)CC(=O)O |  |  | healthy human subjects | oral, dose not given, study CL-0537 safety set |  | incidence of abdominal discomfort | 0%
CC(C)C[C@H](NC(=O)[C@H](Cc1ccccc1)NC(=O)[C@H](Cc1ccccc1)NC(=O)Cc1ccc(-c2ccccc2)cc1)C(=O)N[C@@H](CCCCN)C(=O)N[C@@H](CCCNC(=N)N)C(=O)N[C@H](C(=O)N[C@@H](Cc1c[nH]c2ccccc12)C(=O)N[C@@H](CCCCN)C(=O)N[C@@H](CCCNC(=N)N)C(=O)O)C(C)C |  |  | rat liver microsomes |  |  | hepatic clearance | 49.6 mL/min/kg
Cc1cn([C@H]2O[C@@H](CO[P@@](=O)(N[C@@H](C)C(=O)OC(C)C)Oc3ccccc3)[C@H](O)[C@H]2F)c(=O)[nH]c1=O |  | refers to: Headache | human | 25 mg |  | patients with TEAE | 40%
